Measurements from different studies.
A part holds a random share of what one study measured. Positions count from the first letter of the parent shown.

Set 1
Target: ABI1, truncated, D143A, DHFR fusion (Arabidopsis thaliana)
Method: DHFR PCA, deep sequencing
Medium: yeast
Setting: methotrexate growth selection, single substitutions
With: (+)-ABA 0.39 µM
Relative to: wild-type fitted maximum
Direction: higher = stronger binding
Starting sequence: PYL1, truncated, DHFR fusion (Arabidopsis thaliana); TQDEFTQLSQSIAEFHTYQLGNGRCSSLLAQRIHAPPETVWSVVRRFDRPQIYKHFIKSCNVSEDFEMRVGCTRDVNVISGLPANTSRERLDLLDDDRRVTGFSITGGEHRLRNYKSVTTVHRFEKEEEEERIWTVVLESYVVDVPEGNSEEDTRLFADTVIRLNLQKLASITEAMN
Variant | relative binding score [%]
E174F | -38.8
V78E | 8.81
S87R | 61.2
N22R | 49.1
G102H | -13.2
Y115F | 34.5
S42H | 6.04
D153I | -24
K58A | 22.8
V118K | 19.7
E89K | -3.08

Set 2
Target: Sal-like protein 4, full length isoform A (SALL4, Homo sapiens, UniProt Q9UJQ4, residues 1-1053)
Sequence of UniProt Q9UJQ4 (whole entry, looked up): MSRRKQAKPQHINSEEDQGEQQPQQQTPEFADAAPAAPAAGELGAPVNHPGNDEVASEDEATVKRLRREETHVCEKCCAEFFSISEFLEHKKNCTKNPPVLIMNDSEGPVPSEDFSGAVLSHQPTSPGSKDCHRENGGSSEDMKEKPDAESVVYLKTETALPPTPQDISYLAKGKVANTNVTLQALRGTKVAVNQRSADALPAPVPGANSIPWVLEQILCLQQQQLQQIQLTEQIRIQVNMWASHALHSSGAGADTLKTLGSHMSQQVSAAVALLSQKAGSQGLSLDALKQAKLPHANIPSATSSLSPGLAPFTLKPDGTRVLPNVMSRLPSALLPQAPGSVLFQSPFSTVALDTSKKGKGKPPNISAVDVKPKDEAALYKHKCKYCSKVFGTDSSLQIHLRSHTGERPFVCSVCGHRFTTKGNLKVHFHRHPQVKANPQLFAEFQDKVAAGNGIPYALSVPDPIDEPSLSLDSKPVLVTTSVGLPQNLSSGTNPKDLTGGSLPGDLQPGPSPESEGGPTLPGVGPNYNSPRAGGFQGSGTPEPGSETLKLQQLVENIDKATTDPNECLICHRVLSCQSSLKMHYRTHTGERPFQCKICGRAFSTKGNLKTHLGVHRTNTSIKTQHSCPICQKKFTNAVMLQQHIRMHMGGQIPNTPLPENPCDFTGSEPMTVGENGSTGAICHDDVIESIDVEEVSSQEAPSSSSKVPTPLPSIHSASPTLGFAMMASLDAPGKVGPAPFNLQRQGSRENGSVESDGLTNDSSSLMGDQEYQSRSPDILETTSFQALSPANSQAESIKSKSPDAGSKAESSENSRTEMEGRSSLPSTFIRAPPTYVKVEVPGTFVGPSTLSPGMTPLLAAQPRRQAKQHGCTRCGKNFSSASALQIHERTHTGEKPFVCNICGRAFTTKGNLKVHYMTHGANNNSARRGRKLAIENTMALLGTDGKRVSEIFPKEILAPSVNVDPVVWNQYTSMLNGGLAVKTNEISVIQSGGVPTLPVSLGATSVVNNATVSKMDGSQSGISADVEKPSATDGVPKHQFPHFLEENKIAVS
Method: universal PBM
Molecule type: double-stranded DNA, one strand shown
Medium: in vitro
Concentration: 600 nM
Setting: 8-mer, flanks averaged, mean of replicates
Direction: higher = stronger binding
Strand | E-score
TCCCCTCA | -0.104
AAAAGCAA | 0.166
AAAGCGTC | -0.104
TCATAAAA | 0.39
CGGACTAG | -0.18
ACACAGTC | 0.0276
CATGAAGG | 0.0436
AAAATGAT | 0.348
GCTGTCAC | -0.0932
ACCATAGG | -0.0286
ACCTAGTC | -0.0848
CCAAATAA | 0.231
CCCTACCA | -0.196
GGAGGCCA | -0.295
AACGAAAG | 0.0898
GATTGTGC | -0.0574
AATTATCC | 0.232
TCAGCGCA | -0.125
GCTATAAA | 0.292
AAGTCGTG | -0.011

Set 3
Target: Ras GTPase-activating protein-binding protein 1, RRM domain (G3BP1, Homo sapiens, UniProt Q13283)
Sequence of UniProt Q13283 (whole entry, looked up): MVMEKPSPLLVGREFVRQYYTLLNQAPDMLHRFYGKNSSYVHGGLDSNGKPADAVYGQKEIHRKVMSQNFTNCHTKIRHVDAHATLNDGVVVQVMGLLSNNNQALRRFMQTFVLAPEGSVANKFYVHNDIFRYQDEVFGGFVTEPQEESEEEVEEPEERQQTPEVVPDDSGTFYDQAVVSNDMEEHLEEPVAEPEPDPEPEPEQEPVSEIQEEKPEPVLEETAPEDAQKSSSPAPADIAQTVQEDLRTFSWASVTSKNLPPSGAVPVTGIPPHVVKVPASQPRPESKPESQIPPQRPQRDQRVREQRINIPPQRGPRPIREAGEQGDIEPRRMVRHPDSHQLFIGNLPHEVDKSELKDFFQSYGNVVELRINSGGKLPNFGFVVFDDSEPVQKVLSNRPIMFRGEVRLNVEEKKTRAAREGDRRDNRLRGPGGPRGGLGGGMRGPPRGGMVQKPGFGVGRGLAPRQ
Method: RNA Bind-n-Seq
Molecule type: RNA
Medium: in vitro
Concentration: 1 µM
Setting: whole 134-nt RNA, ends assumed
With: 150 mM KCl
Relative to: input library
Direction: higher = stronger binding
Constant ends, left off below: GGGAGUUCUACAGUCCGACGAUC … UGGAAUUCUCGGGUGUCAAGG
Strand | log2 enrichment
AGUCCUGUGCUACACAUCGUAUGUACCGAAUCGGGGUGGGGUUUGGGGAAAAAGGGGAAAGUAUUAUGUUACGCCGUUCGGAUCUGCACU | 1.15
UCAAGUCCUGUGCUACACAUCGUAUGUACCGAAUCGGGGAGGGGUGGGGAGGGGAAAGUAUUAUGUUACGCCGUUCGGAUCUGCACUUCC | 0.968
AAGUCCUGUGCUACACAUCGUAUGUACCGAAUCGGGUGGGUUUGGGAAAAAAAGGGAAAGUAUUAUGUUACGCCGUUCGGAUCUGCACUU | 0.372
UUCCUCAGGGUAGAACUGGAUGACUCAGACGUGUUCCAUGGUGAACCUGAACCUGAGGAGCUGCCUGGAGGUAAGGGCCCUGAACUGUCC | -0.557
AAGUCCUGUGCUACACAUCGUAUGUACCGAAUCGGGGAAAGGGGUUUGGGGAGGGGAAAGUAUUAUGUUACGCCGUUCGGAUCUGCACUU | 1.45
AAGUCCUGUGCUACACAUCGUAUGUACCGAAUCGGAAAAAAAGGAAAAAAAGGAGGAAAGUAUUAUGUUACGCCGUUCGGAUCUGCACUU | -0.105
CGGGAGGUGGAUUUUGUUUAUUUUUUUAGCUCAUUUCCAGGGGUGGGAAUUUUUUUUUAAUAUGUGUCAUGAAUAAAGUUGUUUUUGAAA | 1.67
GUCCUGUGCUACACAUCGUAUGUACCGAAUCGGGUUUUUUUGGGUUUUUGGGAAAGGGAAAGUAUUAUGUUACGCCGUUCGGAUCUGCAC | 0.122
UGGGAGGUGGAUUUUGUUUAUUUUUUUAGCUCAUGUCCAGGGGUGGGAAUUUUUUUUUAAUAUGUGUCAUGAAUAAAGUUGUUUUUGAAA | 1.27

Set 4
Target: Centromere-binding protein 1, full length, N-terminal tag (CBF1, Saccharomyces cerevisiae, UniProt P17106, residues 1-351)
Sequence of UniProt P17106 (whole entry, looked up): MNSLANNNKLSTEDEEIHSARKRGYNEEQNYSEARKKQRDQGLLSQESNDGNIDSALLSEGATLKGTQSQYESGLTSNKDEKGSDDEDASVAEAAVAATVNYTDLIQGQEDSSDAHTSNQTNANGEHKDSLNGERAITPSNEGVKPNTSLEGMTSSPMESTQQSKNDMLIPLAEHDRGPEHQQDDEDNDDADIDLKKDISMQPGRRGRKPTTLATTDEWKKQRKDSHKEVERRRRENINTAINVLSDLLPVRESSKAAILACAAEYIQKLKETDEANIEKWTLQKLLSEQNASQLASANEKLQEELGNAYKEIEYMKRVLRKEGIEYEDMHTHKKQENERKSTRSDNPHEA
Method: protein-binding microarray
Molecule type: double-stranded DNA, one strand shown
Medium: in vitro
Concentration: 0.8 µM
Setting: whole 60-bp probe, no competitor
Direction: higher = stronger binding
Constant ends, left off below: … GTCTTGATTCGCTTGACGCTGCTG
Strand | fluorescence intensity [a.u.]
GAAAATTTGTAATGTCACGTGCATAATGGCATTTAG | 14800
CTAATTCGTGGTAGTCACGCATACGTTTGTCAGTTC | 930
GAATATATAAAAGAAGACGTGCTCTAAACAAAGTAG | 554
GAATTTCAACCTTTGCACGATCTTTCAACGCTGTAG | 561
CTATGCCTTTACCCGCACGCTTAATATAATTTTTTC | 557
CTAAGAAAAAGACGTGACGTTGTAACCGAGAGGTTC | 876
GAACGCCACGATGATCGCACGTGCCGGCATTTATAG | 10100
CTACCGCTAATTAGTAACGTGCCGTGATTCTTTTTC | 1420
CTATCTCCTTGTCGTCATGTGAAAGTCAAACAGTTC | 1160
CTATGTTAATTGTATGGCGTGTGGCCTTGCTATTTC | 540
CTAATGTGGAAATGGCATGACACCCCCCCACACTTC | 522
CTAACTAAATATTTCAACGTGTGTCTTTCAATTTTC | 548
TGTACGAAGCTATCGCTCGTGTATATAGTAGTTAGG | 536
CTAGTCTACTTCTTTCACGTTACCATTTACTAATTC | 875
CTAAGCCAGATCAGGTGCGTGGATTCATATAATTTC | 1410
GAACCAGACACGTCGCACGTGCTCTTGCAGAGATAG | 10100
CTATAACGCATCAATCTCCTGTGGAAGAGTGCTTTC | 479

Set 5
Target: Interferon regulatory factor 5, full length, phosphomimetic (IRF5, Homo sapiens, UniProt Q13568-2, residues 1-514, K96S/S451D/S453D/S456D/S462D)
Method: protein-binding microarray
Molecule type: double-stranded DNA, one strand shown
Medium: in vitro
Concentration: 250 nM
Setting: 60-bp whole probe
With: salmon DNA 0.4 mg/ml
Relative to: random background probes
Direction: higher = stronger binding
Constant ends, left off below: GCCTAGCAC … GTCTTGATTCGCTTGACGCTGCTG
Strand | log fluorescence [z-score]
GACGGTTTCGGTCACGGGACGTGCTAG | 9.55
CCCACCCTCAGGGAGCCTGTGTGCTAG | -0.97
CTTGCTTGGTGTCTCTGGCCGTGCTAG | -0.598
GACGATAGCGGGTTTCGAGACGTGCTA | 1.81
TCATGGATATATATCATACTGTGCTAG | 0.662
GACGATCTCAGTCGCGAGACGTGCTAG | -0.139
GCCGGACTGGGTATCGGGACGTGCTAG | 0.337
TTAGGTTCCGGGTTCGGTTAGTGCTAG | 0.609
GACGAAATGGGGTTTCGAGACGTGCTA | 2.2
TTTATTTTCAGTATTACCTCGTGCTAG | 4.72
GACGGTATCCTTATCCGGACGTGCTAG | 0.0962

Set 6
Target: Histone acetyltransferase KAT6A, both winged helices, GST fusion (KAT6A, Homo sapiens, UniProt Q92794, residues 1-181)
Method: protein binding microarray
Molecule type: double-stranded DNA, one strand shown
Medium: in vitro
Concentration: not given
Setting: 8-mer, flanks averaged, mean of 2 arrays, mostly near background
Relative to: not given
Direction: higher = stronger binding
Target sequence (chain): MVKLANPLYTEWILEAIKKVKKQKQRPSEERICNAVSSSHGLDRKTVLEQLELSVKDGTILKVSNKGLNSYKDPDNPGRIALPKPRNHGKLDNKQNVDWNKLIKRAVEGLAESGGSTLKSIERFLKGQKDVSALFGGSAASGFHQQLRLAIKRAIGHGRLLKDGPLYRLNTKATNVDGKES
Strand | E-score
TACAATCA | -0.0927
GAAGCTCA | -0.0739
ATTGGCAC | -0.304
AGCATAAA | -0.076
ATCCAAAG | -0.105
ACTCAAAT | -0.131
TCTATAAA | -0.222
CGAGTCTC | -0.0773
GCGACACC | 0.153
GAGATTAC | 0.0901
AGCACGAG | -0.103
ACCAAGCG | 0.164
AACTTGAC | -0.111
GACTAGAA | -0.0962

Some of these lines once more (set 5):
Strand | log fluorescence [z-score]
GACGGTTTCGGTCACGGGACGTGCTAG | 9.55
CCCACCCTCAGGGAGCCTGTGTGCTAG | -0.97
CTTGCTTGGTGTCTCTGGCCGTGCTAG | -0.598
GACGATAGCGGGTTTCGAGACGTGCTA | 1.81
TCATGGATATATATCATACTGTGCTAG | 0.662
GACGATCTCAGTCGCGAGACGTGCTAG | -0.139
GCCGGACTGGGTATCGGGACGTGCTAG | 0.337
TTAGGTTCCGGGTTCGGTTAGTGCTAG | 0.609
GACGAAATGGGGTTTCGAGACGTGCTA | 2.2
TTTATTTTCAGTATTACCTCGTGCTAG | 4.72
GACGGTATCCTTATCCGGACGTGCTAG | 0.0962
